Results collected from several papers.
A part holds a random share of what one study measured. Positions count from the first letter of the parent shown.

Series 1 — technique: protein binding microarray; form: double-stranded DNA, one strand shown; sample: in vitro; concentration: not given; reference: not given; reading: higher = stronger binding
Target: Histone acetyltransferase KAT6A, winged helix 1, GST fusion (KAT6A, Homo sapiens, UniProt Q92794, residues 1-85)
Setting: 8-mer, flanks averaged, mean of 2 arrays, mostly near background
Construct (chain): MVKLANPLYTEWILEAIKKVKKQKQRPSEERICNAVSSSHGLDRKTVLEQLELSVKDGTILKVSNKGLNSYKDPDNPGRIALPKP
Oligonucleotide | E-score
AAATCACG | 0.101
ACGTATAT | -0.0119
AAGTGCCC | -0.14
CATTCTTC | -0.169
CTCTCGCA | -0.0929
ACCCAACA | -0.136
CTCCCTGC | -0.105
GTGACTTA | -0.038
GCAGCTCA | -0.213
CAACGGTA | 0.0482
CAAACTGG | -0.332
ACATCGTG | -0.0165
GAAAGTCC | -0.013
CCTTGTGA | -0.0945
ACCGTTTA | 0.185
CAGAACAC | -0.0729
GATGAAAC | -0.0508
CACATTTA | -0.167
ACGTTCCC | 0.0848
GCCTGGCC | 0.143
GATAGCGC | 0.356
TAGGTAGA | -0.0674

Series 2 — target: CCNA2, cyclin fold, Cln2 fusion (human); technique: yeast growth competition, sequencing; sample: yeast; setting: strong parent motif; reference: not given; reading: higher = stronger binding
Starting sequence: REV3L docking peptide (human); PPVIIKYIIINRF
Change | normalised enrichment score
I10A | 1.86
P1A | 1.19
N11A | 0.965
I9A | 0.757
I8A | 0.669
Y7A | 1.09

Series 3 — technique: protein-binding microarray; form: double-stranded DNA, one strand shown; sample: in vitro; concentration: not given; reading: higher = stronger binding
Target: Myc proto-oncogene protein, bHLH-zipper, MAX partner unstated (MYC, Homo sapiens, UniProt P01106, residues 368-449)
Sequence of UniProt P01106 (368-449, looked up): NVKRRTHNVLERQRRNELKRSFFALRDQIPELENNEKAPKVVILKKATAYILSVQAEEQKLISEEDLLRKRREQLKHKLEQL
Setting: k-mer, scored over probes, only values ≥0.25
Oligonucleotide | E-score
CTGAGCAC | 0.263
GAGCACGC | 0.438
GTGCGTCA | 0.258
CGCGCGGA | 0.316
ACGCTGCA | 0.265
AGACGTGG | 0.268
ACGCCCAC | 0.352
ACGTGTTA | 0.41
CAGACCCC | 0.256
CCACCTGG | 0.365
AAGCATGG | 0.415
CCTCATGC | 0.432
AGCGTGGC | 0.423
CAACATGC | 0.369
TCCACGCA | 0.373
ACGAGGGC | 0.364
ACGTGAGT | 0.289
CACGGGGC | 0.343

Series 4 — technique: RNA Bind-n-Seq; form: RNA; sample: in vitro; concentration: 1 µM; setting: whole 134-nt RNA, ends assumed; added: 150 mM KCl; reference: input library; reading: higher = stronger binding
Target: Ras GTPase-activating protein-binding protein 1, RRM domain (G3BP1, Homo sapiens, UniProt Q13283)
Sequence of UniProt Q13283 (whole entry, looked up): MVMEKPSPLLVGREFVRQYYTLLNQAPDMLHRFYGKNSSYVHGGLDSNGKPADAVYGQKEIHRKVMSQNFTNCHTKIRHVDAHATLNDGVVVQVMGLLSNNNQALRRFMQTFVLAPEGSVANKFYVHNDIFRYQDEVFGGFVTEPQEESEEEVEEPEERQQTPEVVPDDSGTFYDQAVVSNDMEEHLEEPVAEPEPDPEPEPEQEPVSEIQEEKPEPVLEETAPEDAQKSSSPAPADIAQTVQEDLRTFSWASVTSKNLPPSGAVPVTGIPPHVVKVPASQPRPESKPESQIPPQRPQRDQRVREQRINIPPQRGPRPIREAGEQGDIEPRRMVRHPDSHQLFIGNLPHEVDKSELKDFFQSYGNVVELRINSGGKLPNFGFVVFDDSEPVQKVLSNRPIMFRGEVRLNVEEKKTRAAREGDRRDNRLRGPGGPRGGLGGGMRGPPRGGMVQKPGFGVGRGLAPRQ
Oligonucleotide | log2 enrichment
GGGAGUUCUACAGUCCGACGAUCACCAUGCAGGUGGGCAUCUUUGGGAAGUGGGGCAAAAGGGGGAUAGGGAGGGGGGUAACACUUUGGGAACAGGUGGUCCCAGGUCGUUUCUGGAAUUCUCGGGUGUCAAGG | -0.411
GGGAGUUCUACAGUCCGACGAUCGUCCUGUGCUACACAUCGUAUGUACCGAAUCGGGGAAAGGGGAAAAAAAGGGGAGGGGAAAGUAUUAUGUUACGCCGUUCGGAUCUGCACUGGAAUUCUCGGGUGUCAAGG | 0.905
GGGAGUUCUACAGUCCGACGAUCUUCCCACAGCCCAAAAAUCUUCUCAACAGUGUGAUUGGAAGAGCCCUCGGCAUCUCACAUGCAAAAGACAAACUAGUCUACGUGCACACAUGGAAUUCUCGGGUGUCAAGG | -0.019
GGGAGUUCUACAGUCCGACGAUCAAGUCCUGUGCUACACAUCGUAUGUACCGAAUCGGAAAGGUUUUUGGUUUUUUUGGAAAGUAUUAUGUUACGCCGUUCGGAUCUGCACUUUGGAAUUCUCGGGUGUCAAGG | -0.349
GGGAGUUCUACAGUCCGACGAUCAGUCCUGUGCUACACAUCGUAUGUACCGAAUCGGGCCCCCGGGCCCCCGGCCCCCGGAAAGUAUUAUGUUACGCCGUUCGGAUCUGCACUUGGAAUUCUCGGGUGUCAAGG | -0.375
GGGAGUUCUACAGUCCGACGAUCCAAGUCCUGUGCUACACAUCGUAUGUACCGAAUCGGGAGGGAAAAAAAGGGUGGGAAAGUAUUAUGUUACGCCGUUCGGAUCUGCACUUCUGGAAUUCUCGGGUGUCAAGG | 0.745
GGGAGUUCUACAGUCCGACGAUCAGUCCUGUGCUACACAUCGUAUGUACCGAAUCGGGGCCCCCGGGCCCCCGGCCCCCGGAAAGUAUUAUGUUACGCCGUUCGGAUCUGCACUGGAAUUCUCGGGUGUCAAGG | -0.512
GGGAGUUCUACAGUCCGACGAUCUAACUUUAGAGGAGAAUCUGAUGGAUAUGGCAGUGGACGUGGAUUUGGGGAUGGCUAUAAUGGGUAUGGAGGAGGACCUGGAGGUGGCAAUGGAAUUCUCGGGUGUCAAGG | -0.866
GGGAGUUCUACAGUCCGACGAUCGUCCUGUGCUACACAUCGUAUGUACCGAAUCGUGUGUGUGUGUGUGUGUGUGUGUGUGAAAGUAUUAUGUUACGCCGUUCGGAUCUGCACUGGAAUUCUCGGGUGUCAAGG | 0.0963

Series 5 — technique: RNA Bind-n-Seq; form: RNA; sample: in vitro; concentration: 365 nM; reference: no-protein control; reading: higher = stronger binding
Target: RNA binding protein fox-1 homolog 2, RRM domain, GST-SBP tag (RBFOX2, Homo sapiens, UniProt O43251-10, residues 100-194)
Setting: natural RNA segment, single round, ends assumed
Oligonucleotide | RBNS enrichment (R)
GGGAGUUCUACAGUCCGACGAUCGUUUAACCCUCCCUAGUUGAAUGUUAUUUUCUUCUUGUUCCAUUAAGUCAGAAUACAAAUCAGCACAGAUAUUCGAAUGUUUCCAAUAUUUUAAAAUGUAAUGUUACUUAUGGAAUUCUCGGGUGCCAA | 1.26
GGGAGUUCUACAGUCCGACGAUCAAUGUAGUUAAAUUCAUCUUUAAAGUACACAUAUGUGCCUAGAGCCAAAAAAUAAUAAUGAUUUAAUUUAUGACCUUAUGUUGAGACUAAUUUCACAUCUUAUUUUGCAGUGGAAUUCUCGGGUGCCAA | 0.531
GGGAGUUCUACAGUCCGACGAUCGCCAUUUCUGGGGUUUGUCUGUUCUAUCUCCUGCCUACCAGUCGGUAUCUUCAGCUGUUUCUUCUAUUGCUGGAUUUUCUGUUCCUUUUCCCCAGUGUUCUGUUUUCUUUUGGAAUUCUCGGGUGCCAA | 0.378
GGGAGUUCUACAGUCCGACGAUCGGAUUUAAUGCACUUGACGUGGAUUAAGUUAUUCUGAGCAUGUUACUGUAAUGAUUCUCAAAUUAACUGUAUUAGUGUAAGCUUUGUCACUAUGCGCUAAACGUAAUCCUUGGAAUUCUCGGGUGCCAA | 0.899
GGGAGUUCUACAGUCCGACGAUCGUGGAGCGGAAAAGCAGGUUGGUAAAGUUCCCUUCUUGGGACUUAUUCCUGGAGUCAGUGGAUACAAGUAGUGCAGAAGGUUCACACUGCAAAUAGUGUUCUCAUCUCAAUGGAAUUCUCGGGUGCCAA | 0.555
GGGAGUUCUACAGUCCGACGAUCACUUGCCCCGUGACUUCAGUUUUCUAUAGGAAUUUUAUUAAAGAGUGUUUAAUUUUGUUGUCCUUCUUAAUGUUCUCAGUCAAAUAAAUGGGUGGUUUCAUCUGUUUGGGUGGAAUUCUCGGGUGCCAA | 0.604
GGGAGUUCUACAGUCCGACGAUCGUUGUGUUUUAUGUUCUUAGAGGACAUAUUUUUGAUGAGGCCAAAACUGCUGUUCUGUUUCGUUGAUUGCAUCGAGCAUGUUUCUAUAUAAGGUGGGUACUCUGAGCAGCUGGAAUUCUCGGGUGCCAA | 13.9
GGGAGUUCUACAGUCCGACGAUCUGUAGCCCCUCUUCUCUGCUCUGCCCCUCCUUUCCUGUCCCCUCCUUUAGCCCCUUCCCCCAAGGACUUCCUCCUGGAGACUCAGCCCCUAAGCUGGAACUGCUGUUAGGUGGAAUUCUCGGGUGCCAA | 0.801

Series 6 — technique: universal PBM; form: double-stranded DNA, one strand shown; sample: in vitro; concentration: 600 nM; reading: higher = stronger binding
Target: Sal-like protein 4, full length isoform A (SALL4, Homo sapiens, UniProt Q9UJQ4, residues 1-1053)
Sequence of UniProt Q9UJQ4 (whole entry, looked up): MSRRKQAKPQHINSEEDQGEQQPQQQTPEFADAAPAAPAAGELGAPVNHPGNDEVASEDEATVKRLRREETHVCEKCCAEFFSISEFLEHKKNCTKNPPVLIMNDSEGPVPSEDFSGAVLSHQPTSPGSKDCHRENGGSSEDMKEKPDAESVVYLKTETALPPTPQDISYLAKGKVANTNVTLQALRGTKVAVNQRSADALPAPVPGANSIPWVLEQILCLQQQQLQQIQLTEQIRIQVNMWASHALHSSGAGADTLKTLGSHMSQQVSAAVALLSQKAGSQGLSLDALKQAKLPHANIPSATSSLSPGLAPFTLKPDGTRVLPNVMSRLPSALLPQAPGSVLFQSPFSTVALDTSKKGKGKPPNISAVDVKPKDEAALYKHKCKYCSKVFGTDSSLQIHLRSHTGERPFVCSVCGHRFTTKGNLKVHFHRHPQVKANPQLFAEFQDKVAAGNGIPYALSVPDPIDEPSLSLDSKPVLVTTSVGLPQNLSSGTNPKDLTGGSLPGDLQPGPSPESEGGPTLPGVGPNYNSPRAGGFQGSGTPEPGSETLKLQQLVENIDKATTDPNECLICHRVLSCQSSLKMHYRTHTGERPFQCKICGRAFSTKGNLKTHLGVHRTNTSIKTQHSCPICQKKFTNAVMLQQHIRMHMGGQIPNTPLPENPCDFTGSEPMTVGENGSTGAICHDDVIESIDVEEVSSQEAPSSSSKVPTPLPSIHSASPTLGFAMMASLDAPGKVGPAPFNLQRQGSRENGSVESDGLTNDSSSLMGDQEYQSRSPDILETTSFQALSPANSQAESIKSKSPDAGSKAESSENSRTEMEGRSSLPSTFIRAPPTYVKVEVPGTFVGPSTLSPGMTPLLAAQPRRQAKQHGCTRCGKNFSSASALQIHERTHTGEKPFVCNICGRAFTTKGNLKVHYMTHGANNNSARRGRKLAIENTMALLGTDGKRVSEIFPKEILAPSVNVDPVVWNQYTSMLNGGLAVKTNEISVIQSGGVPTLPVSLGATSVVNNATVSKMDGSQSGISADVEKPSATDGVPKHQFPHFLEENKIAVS
Setting: 8-mer, flanks averaged, mean of replicates
Oligonucleotide | E-score
ACTGTTCA | -0.0617
TGCGAAAA | 0.21
GGTAACAA | 0.217
GAGGTTAC | -0.0329
CTCTCACC | -0.177
ATATCCGG | -0.0374
CCGAGAGC | -0.215
ACGGTACC | -0.122
AAGCAACA | 0.0419
CAGGTCTC | -0.219
AATGTACC | 0.166
GGGGTGAA | -0.169
AAGCAACC | -0.0495
CGACTTTA | 0.165
AAGCAATA | 0.235
CGTGGCGA | -0.239
AGCCTTAG | -0.0807
CGGAGGGA | -0.27

Repeated from above (series 1):
Oligonucleotide | E-score
TAGGTAGA | -0.0674
ACCGTTTA | 0.185
ACGTATAT | -0.0119
GATGAAAC | -0.0508
GCCTGGCC | 0.143
AAATCACG | 0.101
